Experimental data pooled from the literature.
Each numbered part is a random draw from the data of one study; scales do not carry over between parts. Positions count from the first letter of the parent shown.

Sample 1
Target: Histone acetyltransferase KAT6A, winged helix 2, GST fusion (KAT6A, Homo sapiens, UniProt Q92794, residues 85-181)
Method: protein binding microarray
Molecule type: double-stranded DNA, one strand shown
Matrix: in vitro
Concentration: not given
Notes: 8-mer, flanks averaged, mean of 2 arrays, mostly near background
Reference: not given
Reading: higher = stronger binding
Residues (chain): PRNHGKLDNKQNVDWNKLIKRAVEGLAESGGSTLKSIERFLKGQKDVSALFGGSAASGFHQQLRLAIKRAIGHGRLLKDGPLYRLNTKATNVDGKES
Strand	E-score
AATATCGC	-0.108
AAAATCAG	0.062
ACCAAGGC	-0.0742
GACTAGCC	-0.123
ACGTTCTC	-0.17
AGAGTAAC	0.0182
CACGTTTA	-0.111
CCTGTGAC	-0.0461
ACGCCCAA	-0.00465
CCTAAGCA	0.123
CATTCCCA	-0.0818
GCTAGATA	-0.0308
CAAACATG	-0.182
CCCTGTAA	-0.0796
TACACAGA	-0.0528
GCCACGCA	0.0851
GGGTTAAA	-0.236

Sample 2
Target: Fragile X messenger ribonucleoprotein 1, C-terminal low-complexity region (Fmr1, Mus musculus, UniProt P35922)
Method: RNA Bind-n-Seq
Molecule type: RNA
Matrix: in vitro
Concentration: 200 nM
Notes: whole 134-nt RNA, ends assumed
Together with: 150 mM KCl
Reference: input library
Reading: higher = stronger binding
All sequences stand within: GGGAGUUCUACAGUCCGACGAUC … UGGAAUUCUCGGGUGUCAAGG
Strand	log2 enrichment
CUGUGCUACACAUCGUAUGUACCGAAUCGGGGAAAAAGGGGUUUUUUUGGGGUUUUUGGGGAAAGUAUUAUGUUACGCCGUUCGGAUCUG	0.0229
CACAGACAACACGCACCCACACAGACACAGAGGGAAGGGGUUGGGAUGGGUACAGGGUGCACAGCAGGGCGGGGUAGGACCCCAGCCCCU	1.32
UGGCCCUGGUGGCAUGCGGGGAGGAAGAGGUGGCGUCAUGGAUCGUGGUGGUCCCGGUGGAAUGUUCAGAGGUGGCCGUGGUGGAGACAG	0.434
ACCAUGCAGGUGGGCAUCUUUGGGAAGUGGGGCAAGAGGGGGAUAGGGAGGGGGGUAACACUUUGGGAACAGGUGGUCCCAGGUCGUUUC	0.795
CAAGUCCUGUGCUACACAUCGUAUGUACCGAAUCGGUUUUGGUUUUGGGUUUUGGGAAAGUAUUAUGUUACGCCGUUCGGAUCUGCACUU	-0.772
GUCCUGUGCUACACAUCGUAUGUACCGAAUCGGGUUUUUUUGGGUUUGGGAAAAAGGGAAAGUAUUAUGUUACGCCGUUCGGAUCUGCAC	-0.379
GUGCUACACAUCGUAUGUACCGAAUCGGGGUUUUUUUGGGGUUUUUUUGGGGUUUUUUUGGGGAAAGUAUUAUGUUACGCCGUUCGGAUC	0.629
CCUGUGCUACACAUCGUAUGUACCGAAUCGGGCCCCCCGGGGCCCCCCGGGGCCCCCCGGAAAGUAUUAUGUUACGCCGUUCGGAUCUGC	-0.842
AAGUCCUGUGCUACACAUCGUAUGUACCGAAUCGGGAAAGGGAAAGGGGAAAGGGGAAAGUAUUAUGUUACGCCGUUCGGAUCUGCACUU	0.195
UCAAGUCCUGUGCUACACAUCGUAUGUACCGAAUCGGGAGGGAAAGGGUUUGGGAAAGUAUUAUGUUACGCCGUUCGGAUCUGCACUUCC	1.07
ACCAUGCAGGUGGGCAUCUUUGGGAAGUGGGGCAAGGGGGGGAUAGGGAGGGGGGUAACACUUUGAGAACAGGUGGUCCCAGGUCGUUUC	0.63
GUCCUGUGCUACACAUCGUAUGUACCGAAUCGGGUUUUUUUGGGUGGGAAAAAAAGGGAAAGUAUUAUGUUACGCCGUUCGGAUCUGCAC	-0.0755
UCAAGUCCUGUGCUACACAUCGUAUGUACCGAAUCGGGUUUGGGGUUUGGUUUGGAAAGUAUUAUGUUACGCCGUUCGGAUCUGCACUUC	-0.135
CUCAAGUCCUGUGCUACACAUCGUAUGUACCGAAUCGGAAAAAGGAAAGGUGGAAAGUAUUAUGUUACGCCGUUCGGAUCUGCACUUCCA	-0.419

Sample 3
Target: Sal-like protein 4, full length isoform B (SALL4, Homo sapiens, UniProt Q9UJQ4-2, residues 1-616)
Method: universal PBM
Molecule type: double-stranded DNA, one strand shown
Matrix: in vitro
Concentration: not given
Notes: 8-mer, flanks averaged, mean of replicates
Reading: higher = stronger binding
Construct (chain): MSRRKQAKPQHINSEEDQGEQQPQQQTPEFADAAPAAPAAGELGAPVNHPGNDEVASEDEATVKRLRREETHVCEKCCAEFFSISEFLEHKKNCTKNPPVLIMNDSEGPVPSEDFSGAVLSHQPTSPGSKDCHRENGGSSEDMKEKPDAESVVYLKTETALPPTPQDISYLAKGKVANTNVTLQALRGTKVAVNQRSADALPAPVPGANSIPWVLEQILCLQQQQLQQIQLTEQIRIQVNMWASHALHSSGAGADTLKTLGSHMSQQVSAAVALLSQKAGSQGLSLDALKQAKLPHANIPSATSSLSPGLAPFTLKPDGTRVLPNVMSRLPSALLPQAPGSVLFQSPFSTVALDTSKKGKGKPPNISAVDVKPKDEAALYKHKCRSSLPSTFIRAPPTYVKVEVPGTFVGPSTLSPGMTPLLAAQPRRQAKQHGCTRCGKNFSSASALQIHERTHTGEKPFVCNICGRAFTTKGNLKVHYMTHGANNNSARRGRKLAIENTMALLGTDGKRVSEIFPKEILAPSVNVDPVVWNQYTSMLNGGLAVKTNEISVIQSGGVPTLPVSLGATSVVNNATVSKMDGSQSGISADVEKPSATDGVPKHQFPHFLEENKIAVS
Strand	E-score
CAACTACC	-0.0998
AAAAGACG	0.0659
ATCCTTAA	0.0334
GCACGCGA	-0.205
AGTGTACG	0.0166
CTTCCCTC	-0.0528
CGTCCAAA	0.0353
ACAAAAGG	-0.1
GGGTTGCA	-0.0284
ACCCGATA	-0.0661
AGTAGAGA	0.0384
GTACTTTA	0.235
AATTCGGG	-0.00341
ACCTGCGA	-0.115
AGTCCGGA	-0.0966
ATTGCATG	0.192
AGCCACTC	-0.0862

Sample 4
Target: RING finger protein unkempt homolog, zinc fingers 1-6, GST-SBP tag (UNK, Homo sapiens, UniProt Q9C0B0, residues 30-357)
Method: RNA Bind-n-Seq
Molecule type: RNA
Matrix: in vitro
Concentration: not given
Notes: RNA with constant flanks, human and mouse sites, ends assumed
Reference: input RNA pool
Reading: higher = stronger binding
All sequences stand within: GGGAGUUCUACAGUCCGACGAUC … CAACAGAGGAUUGAGCAUCA
Target sequence (chain): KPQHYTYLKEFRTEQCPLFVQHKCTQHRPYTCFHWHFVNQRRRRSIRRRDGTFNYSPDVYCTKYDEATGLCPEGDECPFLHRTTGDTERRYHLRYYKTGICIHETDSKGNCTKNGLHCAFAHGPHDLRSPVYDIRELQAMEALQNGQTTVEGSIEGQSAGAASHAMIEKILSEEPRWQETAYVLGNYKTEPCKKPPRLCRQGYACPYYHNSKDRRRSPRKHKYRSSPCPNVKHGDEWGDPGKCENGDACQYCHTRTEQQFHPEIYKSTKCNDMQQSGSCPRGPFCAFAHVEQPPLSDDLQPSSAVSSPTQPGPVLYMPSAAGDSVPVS
Strand	bound/input enrichment [ratio]
GCAACCCUGUCUGUAGGAGGAAAAACUGUAUCACGUUUUCGUAAAGCUACAUCCAUAUUGGAAUUUUACCGGGAACUUGGAUUGCCGCCGAAACAGACAGUUAAAAUCUUUAAUAUAACA	0.372
GGUGUGCCAGCUCUGACGCAGAACCUACCAAGGAUACUCAGAAAAGAACGCCCUAUAUCAUUAGGAAUUUUCCCAUUACCUGCUGGAGAUGGAUUGCUUACACCUGAUGCUCAGAAAGGA	1.71
UCGCUUCGGCGGAGCCUGGGCUGACCAGCCAGGACAGCGGGGUAAACCCGAACAAUUCUGCGCGAGGUAGGGAGGCCAUGGCGUCCGGCAGUAACUGGCUCUCCGGGGUGAAUGUCGUGC	0.12
GAGUCCUAGGAUGUUUCUCUUGCCUCCUUCUUGCUUUUUUCCUUUCCCCCAGUAGAGACCUAGCAAAGCUUUACAAAGCCCCUGAAAGUAGAUCCCAGAGAGAAAGUUUGCAGUCAGGUG	0.585
UCCACCUCAAGGUCUUUGCAAAGCCCAAAAUCACCUAUGUAGAGAAUCAGACGGCCAUGGAACUAGAGGAGCAAGUCACUCUGACCUGUGAAGCCUCCGGAGACCCCAUCCCCUCCAUCA	0.0863
GGGUUCUGUCUCCGACCUCCUUGCCCGCCCAAAGCCUUGGCAUAAGCUUAGUCUGAAAGGACGGGAACCCUUUGUCCGCAUGCAGCUAUGGCUGAACGACCCCAACAAUGUGGAGAAGCU	0.119
GGAGGGCUCCUAACAGUGUAACUUAUUGUGUCCCCGCGUAUUUAUUUGUUGUAAAUAUUUGAGUAUUUUUAUAUUGACAAAUAAAAUGGAGAAAAUGAAACGAUUGCUCUGAUGGGGCUA	0.129
CCUCAUAGCAAUGCAAAAAAUUUUGAUGAGUUACUACUACUAAAACUAGUUAAGUAAAAGAUGAUUCUUAAGAAUUUCCAGGCUGGGCACGGUGGCUCACGCCUGUAAUCCCAGCACUUU	1.12
UUCCGGGGAGAAGCCUUUCCAGGACCCAUGUGUAGGCACAACUGUUUUCCCUGAUCAGGAUACUUGCGGCACUCAACAGAGGAAAGAAAUUCCUAAGGGAACACUGCUCAGAAAGUACUG	0.103
CAUUCAAGAAAGAAACUUUACAAAUGCAGGGAAUGUGACAAAUCCUUUACUAGCAGCUCAUAUGUCAGAAUACAUCAGAGAAUUCAUUCAGGAGAGAAACCUUACAAAUGUAGUGAGUGU	0.349
GCGGGCUGAGCUCAGGGCUUCCCCGGCCCGGACGCAAUCGCUCAAGUCGGGAGUCCUCCCCCAGGUCCCGGCGGAGACGCCAGCGCGAAAACGCGGACCCAAACCUCCGCGUAGCCCUGG	0.119

Sample 5
Target: ABI1, truncated, D143A, DHFR fusion (Arabidopsis thaliana)
Method: DHFR PCA, deep sequencing
Matrix: yeast
Notes: methotrexate growth selection, single substitutions
Together with: (+)-ABA 0.032 µM
Reference: wild-type fitted maximum
Reading: higher = stronger binding
Parent: PYL1, truncated, DHFR fusion (Arabidopsis thaliana); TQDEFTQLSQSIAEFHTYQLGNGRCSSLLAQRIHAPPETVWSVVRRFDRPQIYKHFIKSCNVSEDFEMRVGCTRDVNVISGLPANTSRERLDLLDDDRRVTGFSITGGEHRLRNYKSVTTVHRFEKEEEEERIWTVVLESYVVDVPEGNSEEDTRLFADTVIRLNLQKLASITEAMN; partner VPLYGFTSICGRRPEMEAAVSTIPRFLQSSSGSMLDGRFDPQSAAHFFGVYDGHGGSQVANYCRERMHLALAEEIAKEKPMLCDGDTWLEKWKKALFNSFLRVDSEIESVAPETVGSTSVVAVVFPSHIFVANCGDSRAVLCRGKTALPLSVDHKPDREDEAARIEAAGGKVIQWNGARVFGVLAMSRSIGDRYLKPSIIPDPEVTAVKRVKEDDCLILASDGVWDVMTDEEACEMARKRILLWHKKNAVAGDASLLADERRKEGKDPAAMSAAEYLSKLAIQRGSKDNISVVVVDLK
Substitution	relative binding score [%]
E109P	2.64
I133N	42.3
Q19V	19.1
T101M	64.9
C72I	8.28
L20P	32.5
A175V	0.685
T120L	-3.21
T154H	-3.77
D48T	4.23
I52T	21.9
P146L	26.6
E127S	38.8
E139V	4.24
H16P	-5.16
K126W	14.7
G102L	-3.61
T6A	44.3
L94W	12.5
G108M	-1.8
I33T	-4.55
V121E	-8.56
R123N	10.6
R24W	0.252
V142Y	-5.47

For quick reference, copied from above (sample 3):
Strand	E-score
ATCCTTAA	0.0334
GCACGCGA	-0.205
AGTGTACG	0.0166
CTTCCCTC	-0.0528
CGTCCAAA	0.0353
ACAAAAGG	-0.1
GGGTTGCA	-0.0284
